Experimental data from different studies.
Each line is one published result; not all experiments were run side by side. “And” joins repeats or separate records; there may be more than shown. Numbers after ± are the reported error.
Cell line: HEK293

SMILES	assay	conditions	scale	endpoint	value
OC1CCN(c2ncnc3[nH]cc(-c4cccc(Cl)c4)c23)CC1	Western blot, item: MOB1 phospho-Thr35	10 µM, 4 h, together with: H2O2 50 µM for 2 h	baseline: DMSO	phosphorylated MOB1 level	decreased
Cc1ccc2c(c1C)NC(=O)[C@]21NN=C(c2ccccc2)S1	MTT	–	baseline: CC50 over IC50	selectivity index	105
C[C@@H]1C[C@@H]([C@H](O)CC2CC(=O)NC(=O)C2)C(=O)[C@@H](C)C1	protein secretion	concentration not given, unit not given	baseline: mock	secreted Gaussia luciferase	0.0927
NCCN(C(=O)c1ccc(Cl)cc1Cl)c1ccc(OCc2ccc(Cl)cc2)cc1	MTT	–	baseline: CC50 over IC50	selectivity index	2.83
CN(CCO)c1ncnc2[nH]cc(-c3cccc(Cl)c3)c12	Western blot, item: MOB1 phospho-Thr35	10 µM, 4 h, together with: H2O2 50 µM for 2 h	baseline: DMSO	phosphorylated MOB1 level	decreased
O[C@@H](c1cc(C(F)(F)F)nc2c(C(F)(F)F)cccc12)[C@H]1CCCCN1	MTT	–	baseline: CC50 over IC50	selectivity index	498
N.N.[Cl][Pt][Cl]	cell growth, MTT	48 h, LED photolysed 1 h	–	IC50	17600 ± 2870 nM
COc1cc2c(OCCCC#N)c3c(c(-c4ccc5c(c4)OCO5)c2cc1OC)C(=O)OC3	endosomal acidification	4 h	–	IC50	98.7 ± 29.5 nM
C/C=C(/C)C(=O)O[C@H]1C(C)=C2[C@H]([C@@H]1OC(=O)CCCCCCC)[C@@](C)(OC(C)=O)C[C@H](OC(=O)CCC)[C@@]1(O)[C@H]2OC(=O)[C@@]1(C)O	western blot	3 µM, 6 h, unit not given	baseline: total eIF2α	phospho-eIF2α level	0.719 and 0.604 and 0.55
COc1cc2c(O)c3c(c(-c4ccc5c(c4)OCO5)c2cc1OC)C(=O)N(N)C3	endosomal acidification	4 h	–	IC50	9060 ± 893 nM
NC(=O)c1cccc(-c2c[nH]c3ncnc(N4CCOCC4)c23)c1	reporter gene, 8xGTIIC luciferase	10 µM, 48 h	baseline: DMSO	YAP/TAZ-TEAD reporter activity	increased
COc1cc2c(OCCCN3CCN(CCO)CC3)c3c(c(-c4ccc5c(c4)OCO5)c2cc1OC)C(=O)OC3	endosomal acidification	–	–	IC50	104 ± 21.2 nM
CC(CO)CN(C)c1ncnc2[nH]cc(-c3cccc(Cl)c3)c12 (centres unmarked)	Western blot, item: MOB1 phospho-Thr35	10 µM, 4 h, together with: H2O2 50 µM for 2 h	baseline: DMSO	phosphorylated MOB1 level	decreased
CO/C1=C\C(C)=C\[C@@H](C)[C@@H](O)[C@@H](C)C/C(C)=C/C=C/[C@H](OC)[C@@H]([C@@H](C)[C@@H](O)[C@H](C)[C@@]2(O)C[C@@H](O)[C@H](C)[C@@H](C(C)C)O2)OC1=O	BCECF-AM	concentration not given, 4 h	baseline: vehicle	cytosolic pH	no effect
Clc1cccc(-c2c[nH]c3nccc(N4CCOCC4)c23)c1	reporter gene, 8xGTIIC luciferase	10 µM, 48 h	baseline: DMSO	YAP/TAZ-TEAD reporter activity	increased
CCOc1c2c(c(-c3ccc4c(c3)OCO4)c3cc(OC)c(OC)cc13)C(=O)OC2	endosomal acidification	–	–	IC50	254 ± 49 nM
CO[C@H]1C[C@@H](C[C@H](C)[C@H]2CC(=O)[C@@H](C)/C=C(\C)[C@H](O)[C@H](OC)C(=O)[C@@H](C)C[C@@H](C)/C=C/C=C/C=C(\C)[C@H](OC)C[C@H]3CC[C@H](C)[C@](O)(O3)C(=O)C(=O)N3CCCC[C@@H]3C(=O)O2)CC[C@@H]1OCCO (racemic)	MTT	–	baseline: CC50 over IC50	selectivity index	50.9

Excerpt of the above:
SMILES	assay	conditions	scale	endpoint	value
Cc1ccc2c(c1C)NC(=O)[C@]21NN=C(c2ccccc2)S1	MTT	–	baseline: CC50 over IC50	selectivity index	105
CO[C@H]1C[C@@H](C[C@H](C)[C@H]2CC(=O)[C@@H](C)/C=C(\C)[C@H](O)[C@H](OC)C(=O)[C@@H](C)C[C@@H](C)/C=C/C=C/C=C(\C)[C@H](OC)C[C@H]3CC[C@H](C)[C@](O)(O3)C(=O)C(=O)N3CCCC[C@@H]3C(=O)O2)CC[C@@H]1OCCO (racemic)	MTT	–	baseline: CC50 over IC50	selectivity index	50.9
